Assay results gathered from unrelated publications.
± gives the spread as reported.

SMILES | assay | test system | conditions | how to read | quantity | value
CCOc1ccc(Cc2cc([C@]34OC[C@](CO)(O3)[C@@H](O)[C@H](O)[C@H]4O)ccc2Cl)cc1 | rapid equilibrium dialysis | healthy subjects normal renal function, plasma | oral, 15 mg, 1 h postdose |  | fraction unbound | 0.0348
CNCCC(Oc1ccc(C(F)(F)F)cc1)c1ccccc1 (centres unmarked) | rapid equilibrium dialysis | pooled human plasma | 4 h, together with: cassette with erlotinib, losartan |  | fraction unbound | 0.04
CC(=O)N[C@H](CSSC[C@H](N)C(=O)O)C(=O)N[C@H](C)C(=O)N[C@H](CCCNC(=N)N)C(=O)N[C@H](CCCNC(=N)N)C(=O)N[C@H](CCCNC(=N)N)C(=O)N[C@H](C)C(=O)N[C@H](CCCNC(=N)N)C(N)=O | in vitro hemodialysis | buffered aqueous solution | 2.1 µM, 15 min | baseline: dose | fraction cleared by hemodialysis | ~70%
Cc1cccc(C)c1OCC(=O)N[C@@H](Cc1ccccc1)[C@@H](O)C[C@H](Cc1ccccc1)NC(=O)[C@H](C(C)C)N1CCCNC1=O | median | HIV and HCV patients, plasma | oral, lopinavir/ritonavir twice daily |  | fraction unbound | 0.0099
CN(C)C(=O)c1cc2cnc(Nc3ccc(N4CCNCC4)cn3)nc2n1C1CCCC1 | equilibrium dialysis | human, non-enhancing tumour homogenate |  |  | fraction unbound | 0.061
CC(C)(Sc1ccncc1-c1ccc(C#N)c2ccccc12)C(=O)O |  | healthy Japanese males | oral, 2.5 mg once daily, day 12, fed, geometric mean |  | fraction excreted unchanged (0-24 h) | 1.89%
CC(C)/N=c1\cc2n(-c3ccc(Cl)cc3)c3ccccc3nc-2cc1Nc1ccc(Cl)cc1 |  | THP-1 caseum surrogate | 5 µM, 4 h, 37 °C |  | fraction unbound | < 0.0001
C#Cc1cccc(Nc2ncnc3cc(OCCOC)c(OCCOC)cc23)c1 | rapid equilibrium dialysis | pooled human plasma | 10 µM, 4 h, together with: cassette with Flx, losartan |  | fraction unbound | 0.03
Cc1cc(Nc2ncc(Cl)c(Nc3ccccc3S(=O)(=O)C(C)C)n2)c(OC(C)C)cc1C1CCNCC1 | equilibrium dialysis | brain tumour patients, enhancing brain tumour tissue | mean of patients |  | fraction unbound | 0.00239
CCCCc1nc(Cl)c(CO)n1Cc1ccc(-c2ccccc2-c2nn[nH]n2)cc1 | rapid equilibrium dialysis | pooled human plasma | 4 h, together with: cassette with gefitinib, Flx |  | fraction unbound | 0.01
Cc1ccc(Nc2nccc(N(C)c3ccc4c(C)n(C)nc4c3)n2)cc1S(N)(=O)=O | equilibrium dialysis | patients, normal albumin, plasma | 6 h, 37 °C, median |  | fraction unbound | 0.000129 ± 6.1e-05

Some of these lines once more:
SMILES | assay | test system | conditions | how to read | quantity | value
Cc1cccc(C)c1OCC(=O)N[C@@H](Cc1ccccc1)[C@@H](O)C[C@H](Cc1ccccc1)NC(=O)[C@H](C(C)C)N1CCCNC1=O | median | HIV and HCV patients, plasma | oral, lopinavir/ritonavir twice daily |  | fraction unbound | 0.0099
